{"data": "Experimental data gathered from unrelated publications", "note": "A part holds a random share of what one study measured.", "chain of UniProt P41240 (whole entry, looked up)": "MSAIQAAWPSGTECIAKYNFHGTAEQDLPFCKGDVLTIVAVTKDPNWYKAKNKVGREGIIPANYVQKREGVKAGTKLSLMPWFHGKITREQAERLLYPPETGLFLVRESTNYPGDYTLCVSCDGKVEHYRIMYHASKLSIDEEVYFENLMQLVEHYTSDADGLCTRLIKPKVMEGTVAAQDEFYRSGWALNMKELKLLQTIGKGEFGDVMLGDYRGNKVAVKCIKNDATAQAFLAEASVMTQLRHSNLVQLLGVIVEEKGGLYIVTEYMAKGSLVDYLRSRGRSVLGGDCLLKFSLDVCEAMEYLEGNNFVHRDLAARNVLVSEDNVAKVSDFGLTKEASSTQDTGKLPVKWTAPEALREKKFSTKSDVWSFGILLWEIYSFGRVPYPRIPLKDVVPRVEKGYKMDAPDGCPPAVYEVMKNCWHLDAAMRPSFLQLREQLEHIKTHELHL", "chain of UniProt P08922 (whole entry, looked up)": "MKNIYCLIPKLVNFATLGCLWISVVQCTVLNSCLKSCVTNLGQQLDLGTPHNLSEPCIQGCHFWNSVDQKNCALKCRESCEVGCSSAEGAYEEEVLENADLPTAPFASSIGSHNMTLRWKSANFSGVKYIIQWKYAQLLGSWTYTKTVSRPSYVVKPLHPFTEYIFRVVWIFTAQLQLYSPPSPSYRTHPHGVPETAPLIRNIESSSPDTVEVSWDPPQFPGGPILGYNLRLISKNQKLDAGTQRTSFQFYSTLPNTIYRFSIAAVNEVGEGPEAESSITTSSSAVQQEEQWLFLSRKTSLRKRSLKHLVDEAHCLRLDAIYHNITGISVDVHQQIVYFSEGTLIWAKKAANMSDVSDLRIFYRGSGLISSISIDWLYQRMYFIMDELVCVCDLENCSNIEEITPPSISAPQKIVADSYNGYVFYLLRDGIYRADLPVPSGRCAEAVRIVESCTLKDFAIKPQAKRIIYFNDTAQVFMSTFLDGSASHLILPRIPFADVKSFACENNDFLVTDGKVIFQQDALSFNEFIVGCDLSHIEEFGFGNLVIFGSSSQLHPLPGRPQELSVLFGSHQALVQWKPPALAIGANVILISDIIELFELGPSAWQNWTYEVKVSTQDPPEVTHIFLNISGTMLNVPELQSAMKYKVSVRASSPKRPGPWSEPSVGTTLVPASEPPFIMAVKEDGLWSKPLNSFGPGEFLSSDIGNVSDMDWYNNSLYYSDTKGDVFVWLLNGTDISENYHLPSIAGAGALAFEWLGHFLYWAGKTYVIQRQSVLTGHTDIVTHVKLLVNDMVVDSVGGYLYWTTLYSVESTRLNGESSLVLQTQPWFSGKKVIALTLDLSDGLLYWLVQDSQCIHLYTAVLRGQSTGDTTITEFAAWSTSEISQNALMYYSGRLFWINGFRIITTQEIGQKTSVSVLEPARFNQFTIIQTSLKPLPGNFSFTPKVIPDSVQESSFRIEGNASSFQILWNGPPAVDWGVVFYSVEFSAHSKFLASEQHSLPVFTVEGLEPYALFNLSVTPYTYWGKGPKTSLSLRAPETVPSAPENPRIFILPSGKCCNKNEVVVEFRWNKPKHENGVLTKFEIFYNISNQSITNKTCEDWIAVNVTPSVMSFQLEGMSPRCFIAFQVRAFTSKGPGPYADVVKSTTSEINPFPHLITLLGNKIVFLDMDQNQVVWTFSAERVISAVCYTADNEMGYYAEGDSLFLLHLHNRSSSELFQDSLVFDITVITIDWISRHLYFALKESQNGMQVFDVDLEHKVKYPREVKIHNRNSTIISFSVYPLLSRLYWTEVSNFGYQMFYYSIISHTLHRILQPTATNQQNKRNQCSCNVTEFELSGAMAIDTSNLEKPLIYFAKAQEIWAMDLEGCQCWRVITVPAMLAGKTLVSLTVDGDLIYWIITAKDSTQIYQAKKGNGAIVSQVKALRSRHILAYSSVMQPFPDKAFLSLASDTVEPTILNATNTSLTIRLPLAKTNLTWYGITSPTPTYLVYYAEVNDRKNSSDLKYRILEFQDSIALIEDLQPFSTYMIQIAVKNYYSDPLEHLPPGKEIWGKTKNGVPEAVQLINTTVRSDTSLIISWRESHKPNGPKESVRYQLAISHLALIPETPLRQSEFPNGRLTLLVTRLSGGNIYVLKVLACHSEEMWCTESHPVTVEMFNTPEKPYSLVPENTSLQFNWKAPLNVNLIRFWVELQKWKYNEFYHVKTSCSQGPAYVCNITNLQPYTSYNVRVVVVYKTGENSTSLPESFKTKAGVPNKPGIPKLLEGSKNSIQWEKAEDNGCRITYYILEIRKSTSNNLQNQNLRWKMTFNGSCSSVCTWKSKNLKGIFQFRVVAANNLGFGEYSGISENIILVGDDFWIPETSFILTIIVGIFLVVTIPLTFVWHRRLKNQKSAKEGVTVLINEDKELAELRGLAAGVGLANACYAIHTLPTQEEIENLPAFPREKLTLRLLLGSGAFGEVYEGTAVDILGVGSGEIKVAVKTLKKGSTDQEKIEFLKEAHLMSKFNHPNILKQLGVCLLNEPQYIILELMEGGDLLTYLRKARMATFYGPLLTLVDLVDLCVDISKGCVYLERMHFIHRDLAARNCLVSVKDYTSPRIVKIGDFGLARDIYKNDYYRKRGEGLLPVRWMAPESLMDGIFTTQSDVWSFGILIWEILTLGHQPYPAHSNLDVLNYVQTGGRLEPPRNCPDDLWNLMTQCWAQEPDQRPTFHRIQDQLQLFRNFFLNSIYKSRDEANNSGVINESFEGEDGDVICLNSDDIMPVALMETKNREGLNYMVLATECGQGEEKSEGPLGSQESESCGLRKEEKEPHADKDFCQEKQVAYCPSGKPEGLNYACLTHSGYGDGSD", "chain of UniProt P42336 (whole entry, looked up)": "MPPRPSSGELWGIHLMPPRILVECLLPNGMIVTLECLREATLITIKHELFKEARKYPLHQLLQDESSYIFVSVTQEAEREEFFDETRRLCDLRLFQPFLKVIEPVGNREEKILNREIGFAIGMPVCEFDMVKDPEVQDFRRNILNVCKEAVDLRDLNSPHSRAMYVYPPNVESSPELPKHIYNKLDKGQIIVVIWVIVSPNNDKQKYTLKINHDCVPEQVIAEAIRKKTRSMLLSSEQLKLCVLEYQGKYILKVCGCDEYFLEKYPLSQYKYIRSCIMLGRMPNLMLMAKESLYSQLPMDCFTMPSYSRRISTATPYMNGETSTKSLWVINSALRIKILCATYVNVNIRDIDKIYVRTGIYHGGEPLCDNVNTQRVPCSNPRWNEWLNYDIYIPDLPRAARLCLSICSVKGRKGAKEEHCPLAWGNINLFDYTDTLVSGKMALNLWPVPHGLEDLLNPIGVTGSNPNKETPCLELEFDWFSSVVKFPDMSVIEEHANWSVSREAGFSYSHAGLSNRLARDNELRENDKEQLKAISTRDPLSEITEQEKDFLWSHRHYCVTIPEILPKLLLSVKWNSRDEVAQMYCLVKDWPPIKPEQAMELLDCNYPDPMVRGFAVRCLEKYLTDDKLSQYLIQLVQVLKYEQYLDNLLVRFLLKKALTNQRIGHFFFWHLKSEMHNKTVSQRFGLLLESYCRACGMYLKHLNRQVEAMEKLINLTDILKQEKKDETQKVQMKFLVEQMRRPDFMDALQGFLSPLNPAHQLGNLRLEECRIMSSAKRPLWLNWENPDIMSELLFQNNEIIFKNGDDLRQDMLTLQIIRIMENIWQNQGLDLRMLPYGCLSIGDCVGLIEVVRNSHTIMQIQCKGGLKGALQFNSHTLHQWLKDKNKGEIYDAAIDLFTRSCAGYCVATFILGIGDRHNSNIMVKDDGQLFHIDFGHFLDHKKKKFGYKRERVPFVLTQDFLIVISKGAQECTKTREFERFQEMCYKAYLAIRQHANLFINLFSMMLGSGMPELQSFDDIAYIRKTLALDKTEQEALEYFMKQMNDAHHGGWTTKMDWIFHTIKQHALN", "chain of UniProt Q16816 (whole entry, looked up)": "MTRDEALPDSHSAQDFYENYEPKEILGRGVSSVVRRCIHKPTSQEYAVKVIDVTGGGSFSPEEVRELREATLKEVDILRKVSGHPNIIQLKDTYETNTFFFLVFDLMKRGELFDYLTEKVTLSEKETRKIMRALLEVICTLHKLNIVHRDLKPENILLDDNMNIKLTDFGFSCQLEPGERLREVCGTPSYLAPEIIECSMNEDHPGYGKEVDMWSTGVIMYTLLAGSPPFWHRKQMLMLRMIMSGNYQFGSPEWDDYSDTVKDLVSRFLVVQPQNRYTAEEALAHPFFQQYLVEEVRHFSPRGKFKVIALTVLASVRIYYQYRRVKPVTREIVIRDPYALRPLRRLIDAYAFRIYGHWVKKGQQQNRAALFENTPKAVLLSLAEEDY", "chain of UniProt Q16539 (whole entry, looked up)": "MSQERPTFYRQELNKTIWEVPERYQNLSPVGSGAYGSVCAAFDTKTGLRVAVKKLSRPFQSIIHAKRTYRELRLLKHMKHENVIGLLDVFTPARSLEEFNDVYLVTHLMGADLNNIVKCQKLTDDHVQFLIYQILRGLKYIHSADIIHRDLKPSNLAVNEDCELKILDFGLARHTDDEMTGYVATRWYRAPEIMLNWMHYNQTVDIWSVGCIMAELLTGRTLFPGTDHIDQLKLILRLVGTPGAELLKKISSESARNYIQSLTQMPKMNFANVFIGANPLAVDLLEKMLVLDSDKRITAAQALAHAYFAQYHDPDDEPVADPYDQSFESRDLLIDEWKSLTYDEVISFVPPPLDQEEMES"}
{"data": "Set 1", "target": "Beta-1 adrenergic receptor (ADRB1, Homo sapiens, UniProt P08588)", "action": "agonist", "chain of UniProt P08588 (whole entry, looked up)": "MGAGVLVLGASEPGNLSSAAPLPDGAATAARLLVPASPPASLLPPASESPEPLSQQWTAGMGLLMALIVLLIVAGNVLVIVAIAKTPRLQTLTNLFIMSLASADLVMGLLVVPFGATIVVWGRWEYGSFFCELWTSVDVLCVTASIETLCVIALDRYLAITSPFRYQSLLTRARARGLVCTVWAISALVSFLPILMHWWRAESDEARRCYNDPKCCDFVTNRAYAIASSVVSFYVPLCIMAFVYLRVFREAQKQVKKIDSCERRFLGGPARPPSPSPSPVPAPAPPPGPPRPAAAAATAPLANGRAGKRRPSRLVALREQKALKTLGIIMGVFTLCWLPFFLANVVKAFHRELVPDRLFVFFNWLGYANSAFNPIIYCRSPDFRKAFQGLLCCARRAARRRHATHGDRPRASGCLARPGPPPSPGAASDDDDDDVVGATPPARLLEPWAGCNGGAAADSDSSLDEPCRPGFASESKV"}
{"Compound": "CCOc1cccc(-c2cc(-c3nnc(S)n3CC)c3ccccc3n2)c1", "EC50 [µM]": "≥ 100"}
{"Compound": "O=C1c2ccc3ccccc3c2C(=O)C1c1cc(O)c2ccccc2n1 (stereo not shown)", "EC50 [µM]": "≥ 100"}
{"Compound": "Cc1cc(Cl)ccc1OCC(O)CN1CCOCC1 (stereo not shown)", "EC50 [µM]": "≥ 100"}
{"Compound": "Cc1nc(N)sc1-c1ccnc(Nc2ccc(N3CCOCC3)cc2)n1", "EC50 [µM]": "≥ 100"}
{"Compound": "COc1ccccc1N1CCN(C(=O)c2ccc(F)cc2)CC1", "EC50 [µM]": "≥ 100"}
{"data": "Set 2", "organism": "Plasmodium berghei", "action": "inhibitor", "cell line": "Huh-7", "strain": "GFP-expressing sporozoites, liver stage", "tested at": "10 µM", "time": "24 h", "relative to": "untreated control"}
{"SMILES": "Nc1ccc(S(=O)(=O)c2ccc(N)cc2)cc1", "infection rate [%]": 105}
{"SMILES": "COc1cc(CNC(=O)CCCC/C=C/C(C)C)ccc1O", "infection rate [%]": 79}
{"SMILES": "CC(C)/N=c1\\cc2n(-c3ccc(Cl)cc3)c3ccccc3nc-2cc1Nc1ccc(Cl)cc1", "infection rate [%]": 105}
{"SMILES": "CC1(C)S[C@@H]2[C@H](NC(=O)[C@H](NC(=O)N3CCNC3=O)c3ccccc3)C(=O)N2[C@H]1C(=O)O", "infection rate [%]": 100}
{"SMILES": "CCC(=O)NCC[C@@H]1CCc2ccc3c(c21)CCO3", "infection rate [%]": 1.03}
{"SMILES": "CC1=C(C(=O)O)N2C(=O)[C@@H](NC(=O)[C@H](N)C3=CCC=CC3)[C@H]2SC1", "infection rate [%]": 96.4}
{"data": "Set 3", "SMILES": "COc1cc(C(=O)N2CCC(N3CCN(C)CC3)CC2)ccc1Nc1ncc2c(n1)N(C)c1ccccc1C(=O)N2C"}
{"target": "TRKB (mouse)", "assay": "probe labelling, inhibitor, KiNativ ActivX ATP probe", "system": "mouse brain lysate", "conditions": "0.1 µM, Lys1 site peptide", "inhibition [%]": -18.1}
{"target": "ZAP70 (human)", "assay": "probe labelling, KiNativ, measured: activation loop peptide", "system": "PBMC lysate (human)", "conditions": "0.1 µM, together with: ADP acyl-phosphate probe", "inhibition [%]": -6.4}
{"target": "PKD2 human", "assay": "KiNativ profiling", "system": "human PBMC", "conditions": "0.1 µM, LYS1 site, together with: ATP acyl phosphate probe", "inhibition [%]": 10.5}
{"target": "MST4 (human)", "assay": "probe labelling, KiNativ ATP probe", "system": "human PBMC lysate", "conditions": "concentration not given, LYS1 labelled site", "inhibition [%]": -10}
{"target": "PI4KA (mouse)", "assay": "probe labelling, KiNativ, measured: SGTPMQSAAkAPYLAK peptide, ATP site", "system": "brain tissue lysate (mouse)", "conditions": "0.1 µM, together with: ATP acyl-phosphate probe", "inhibition [%]": 2.3}
{"target": "PDK1 (mouse)", "assay": "probe labelling, KiNativ ADP probe", "system": "mouse brain lysate", "conditions": "1 µM, LYS1 labelled site", "inhibition [%]": 0.3}
{"target": "RSK2 kinase domain 2 (human)", "assay": "probe labelling, KiNativ, measured: Lys1 site peptide", "system": "PBMC lysate (human)", "conditions": "0.1 µM, together with: ADP acyl-phosphate probe", "inhibition [%]": 0.4}
{"data": "Set 4", "cell line": "mouse MPNST tumor cells", "technique": "high-content nuclear imaging", "measured": "cell number", "tested at": "10 µM", "time": "12 h", "notes": "mean of 2 replicates", "relative to": "plate mean", "direction": "higher = more cells"}
{"Structure (SMILES)": "O=C(NCc1ccc(OC(F)(F)F)cc1)C1c2ccccc2C(=O)N1C1CCOCC1 (stereo not shown)", "nuclei count [z-score]": 0.68}
{"Structure (SMILES)": "C[C@@H](O)[C@H]1C(=O)N2C(C(=O)O)=C(S[C@@H]3CN[C@H](C(=O)N(C)C)C3)[C@H](C)[C@H]12", "nuclei count [z-score]": 1.56}
{"Structure (SMILES)": "c1ccc2c(c1)CCCC2C1=NCCN1 (stereo not shown)", "nuclei count [z-score]": 0.58}
{"Structure (SMILES)": "CN(C)CCCSC(=N)N", "nuclei count [z-score]": -0.0414}
{"Structure (SMILES)": "NN1CCOC1=O", "nuclei count [z-score]": -0.657}
{"Structure (SMILES)": "Cn1c(=O)c2[nH]c(C3CCCC3)nc2n(C)c1=O", "nuclei count [z-score]": 0.267}
{"Structure (SMILES)": "C[N+]1(C)CCC(OC(=O)C(O)(c2ccccc2)C2CCCC2)C1 (stereo not shown)", "nuclei count [z-score]": 1.04}
{"Structure (SMILES)": "COc1ccc(CNC(=O)c2sc3nc(C)cc(C)c3c2N)cc1", "nuclei count [z-score]": 2.94}
{"Structure (SMILES)": "CN1C(=O)c2sccc2N(C)c2nc(Nc3ccc(S(N)(=O)=O)cc3)ncc21", "nuclei count [z-score]": -2.01}
{"data": "Set 5", "Compound": "CNC(=O)Nc1ccc2c(c1)CC[C@@]21OC(=O)N(CC(=O)N(Cc2ccc(F)cc2)[C@@H](C)C(F)(F)F)C1=O", "observed": "cell-free assay", "technique": "competition with immobilised ligand", "tested at": "1 µM"}
{"target": "Peripheral plasma membrane protein CASK (CASK, Homo sapiens, UniProt O14936)", "remaining binding": "86%"}
{"target": "Proto-oncogene tyrosine-protein kinase receptor Ret (RET, Homo sapiens, UniProt P07949, V804L)", "remaining binding": "91%"}
{"target": "Tyrosine-protein kinase ABL1, phosphorylated (ABL1, Homo sapiens, UniProt P00519, F317I)", "remaining binding": "87%"}
{"target": "Serine/threonine-protein kinase tousled-like 1 (TLK1, Homo sapiens, UniProt Q9UKI8)", "remaining binding": "88%"}
{"target": "Tyrosine-protein kinase ABL1, phosphorylated (ABL1, Homo sapiens, UniProt P00519, T315I)", "remaining binding": "100%"}
{"target": "Macrophage-stimulating protein receptor (MST1R, Homo sapiens, UniProt Q04912)", "remaining binding": "77%"}
{"target": "Ribosomal protein S6 kinase alpha-5, N-terminal kinase domain (RPS6KA5, Homo sapiens, UniProt O75582)", "remaining binding": "97%"}
{"target": "Phosphorylase b kinase gamma catalytic chain, skeletal muscle/heart isoform (PHKG1, Homo sapiens, UniProt Q16816)", "remaining binding": "100%"}
{"target": "Serine/threonine-protein kinase ULK3 (ULK3, Homo sapiens, UniProt Q6PHR2)", "remaining binding": "90%"}
{"target": "Proto-oncogene tyrosine-protein kinase ROS (ROS1, Homo sapiens, UniProt P08922)", "remaining binding": "80%"}
{"target": "Ephrin type-A receptor 6 (EPHA6, Homo sapiens, UniProt Q9UF33)", "remaining binding": "79%"}
{"target": "Serine/threonine-protein kinase 33 (STK33, Homo sapiens, UniProt Q9BYT3)", "remaining binding": "100%"}
{"target": "Serine/threonine-protein kinase Nek9 (NEK9, Homo sapiens, UniProt Q8TD19)", "remaining binding": "78%"}
{"target": "Atypical kinase COQ8B, mitochondrial (COQ8B, Homo sapiens, UniProt Q96D53)", "remaining binding": "100%"}
{"target": "Phosphatidylinositol 4,5-bisphosphate 3-kinase catalytic subunit alpha isoform (PIK3CA, Homo sapiens, UniProt P42336)", "remaining binding": "83%"}
{"target": "Serine/threonine-protein kinase MARK2 (MARK2, Homo sapiens, UniProt Q7KZI7)", "remaining binding": "100%"}
{"target": "Serine/threonine-protein kinase PAK 4 (PAK4, Homo sapiens, UniProt O96013)", "remaining binding": "89%"}
{"target": "Serine/threonine-protein kinase D1 (PRKD1, Homo sapiens, UniProt Q15139)", "remaining binding": "99%"}
{"target": "Tyrosine-protein kinase BTK (BTK, Homo sapiens, UniProt Q06187)", "remaining binding": "87%"}
{"target": "Tyrosine-protein kinase CSK (CSK, Homo sapiens, UniProt P41240)", "remaining binding": "100%"}
{"target": "Mitogen-activated protein kinase kinase kinase 13 (MAP3K13, Homo sapiens, UniProt O43283)", "remaining binding": "68%"}
{"target": "Mitogen-activated protein kinase 14 (MAPK14, Homo sapiens, UniProt Q16539)", "remaining binding": "100%"}
